Results collected from several papers.
Lines come from different studies, so protocols differ. ± marks the error that the study gave.
Uncharacterized protein: Uncharacterized protein (Trypanosoma brucei brucei, UniProt Q386Q8)
TDP1: Tyrosyl-DNA phosphodiesterase 1 (TDP1, Homo sapiens, UniProt Q9NUW8)
Sequence of UniProt Q9NUW8 (whole entry, looked up): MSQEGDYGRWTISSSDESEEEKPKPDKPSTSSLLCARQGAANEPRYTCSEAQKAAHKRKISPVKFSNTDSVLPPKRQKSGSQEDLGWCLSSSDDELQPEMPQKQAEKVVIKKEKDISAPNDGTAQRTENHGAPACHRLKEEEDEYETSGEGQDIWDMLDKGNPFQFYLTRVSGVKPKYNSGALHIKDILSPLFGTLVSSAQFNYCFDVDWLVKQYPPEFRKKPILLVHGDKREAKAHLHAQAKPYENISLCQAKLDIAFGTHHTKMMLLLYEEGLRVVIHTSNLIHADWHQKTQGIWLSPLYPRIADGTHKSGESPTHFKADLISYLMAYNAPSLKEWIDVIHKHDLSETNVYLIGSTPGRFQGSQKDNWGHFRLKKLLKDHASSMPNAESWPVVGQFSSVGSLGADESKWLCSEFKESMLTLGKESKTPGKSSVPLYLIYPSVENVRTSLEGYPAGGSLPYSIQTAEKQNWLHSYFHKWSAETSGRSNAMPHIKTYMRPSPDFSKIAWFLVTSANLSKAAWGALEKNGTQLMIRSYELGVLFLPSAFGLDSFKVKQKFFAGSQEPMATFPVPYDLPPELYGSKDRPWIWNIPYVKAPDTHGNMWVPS
ADRB2: Beta-2 adrenergic receptor (ADRB2, Homo sapiens, UniProt P07550)
Sequence of UniProt P07550 (whole entry, unmodified, looked up): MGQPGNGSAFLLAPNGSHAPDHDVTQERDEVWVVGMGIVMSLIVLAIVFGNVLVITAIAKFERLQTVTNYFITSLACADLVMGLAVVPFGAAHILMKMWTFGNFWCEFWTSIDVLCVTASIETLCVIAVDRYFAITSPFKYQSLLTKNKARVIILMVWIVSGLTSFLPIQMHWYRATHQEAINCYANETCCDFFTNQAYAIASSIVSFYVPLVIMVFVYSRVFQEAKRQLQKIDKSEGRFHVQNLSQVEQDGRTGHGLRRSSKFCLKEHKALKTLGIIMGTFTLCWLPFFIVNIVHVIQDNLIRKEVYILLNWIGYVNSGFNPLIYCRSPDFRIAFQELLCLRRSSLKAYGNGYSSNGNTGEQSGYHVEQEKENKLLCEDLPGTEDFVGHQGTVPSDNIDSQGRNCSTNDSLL
ppa: Inorganic pyrophosphatase (ppa, Escherichia coli, UniProt P0A7A9)
Sequence of UniProt P0A7A9 (whole entry, looked up): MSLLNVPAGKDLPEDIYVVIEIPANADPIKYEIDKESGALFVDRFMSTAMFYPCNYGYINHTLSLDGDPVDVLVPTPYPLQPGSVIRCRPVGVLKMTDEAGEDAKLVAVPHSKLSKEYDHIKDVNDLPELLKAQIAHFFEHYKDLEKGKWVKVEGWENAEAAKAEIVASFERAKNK
CACNA1C: Voltage-dependent L-type calcium channel subunit alpha-1C (CACNA1C, Homo sapiens, UniProt Q13936)
Sequence of UniProt Q13936 (whole entry, looked up): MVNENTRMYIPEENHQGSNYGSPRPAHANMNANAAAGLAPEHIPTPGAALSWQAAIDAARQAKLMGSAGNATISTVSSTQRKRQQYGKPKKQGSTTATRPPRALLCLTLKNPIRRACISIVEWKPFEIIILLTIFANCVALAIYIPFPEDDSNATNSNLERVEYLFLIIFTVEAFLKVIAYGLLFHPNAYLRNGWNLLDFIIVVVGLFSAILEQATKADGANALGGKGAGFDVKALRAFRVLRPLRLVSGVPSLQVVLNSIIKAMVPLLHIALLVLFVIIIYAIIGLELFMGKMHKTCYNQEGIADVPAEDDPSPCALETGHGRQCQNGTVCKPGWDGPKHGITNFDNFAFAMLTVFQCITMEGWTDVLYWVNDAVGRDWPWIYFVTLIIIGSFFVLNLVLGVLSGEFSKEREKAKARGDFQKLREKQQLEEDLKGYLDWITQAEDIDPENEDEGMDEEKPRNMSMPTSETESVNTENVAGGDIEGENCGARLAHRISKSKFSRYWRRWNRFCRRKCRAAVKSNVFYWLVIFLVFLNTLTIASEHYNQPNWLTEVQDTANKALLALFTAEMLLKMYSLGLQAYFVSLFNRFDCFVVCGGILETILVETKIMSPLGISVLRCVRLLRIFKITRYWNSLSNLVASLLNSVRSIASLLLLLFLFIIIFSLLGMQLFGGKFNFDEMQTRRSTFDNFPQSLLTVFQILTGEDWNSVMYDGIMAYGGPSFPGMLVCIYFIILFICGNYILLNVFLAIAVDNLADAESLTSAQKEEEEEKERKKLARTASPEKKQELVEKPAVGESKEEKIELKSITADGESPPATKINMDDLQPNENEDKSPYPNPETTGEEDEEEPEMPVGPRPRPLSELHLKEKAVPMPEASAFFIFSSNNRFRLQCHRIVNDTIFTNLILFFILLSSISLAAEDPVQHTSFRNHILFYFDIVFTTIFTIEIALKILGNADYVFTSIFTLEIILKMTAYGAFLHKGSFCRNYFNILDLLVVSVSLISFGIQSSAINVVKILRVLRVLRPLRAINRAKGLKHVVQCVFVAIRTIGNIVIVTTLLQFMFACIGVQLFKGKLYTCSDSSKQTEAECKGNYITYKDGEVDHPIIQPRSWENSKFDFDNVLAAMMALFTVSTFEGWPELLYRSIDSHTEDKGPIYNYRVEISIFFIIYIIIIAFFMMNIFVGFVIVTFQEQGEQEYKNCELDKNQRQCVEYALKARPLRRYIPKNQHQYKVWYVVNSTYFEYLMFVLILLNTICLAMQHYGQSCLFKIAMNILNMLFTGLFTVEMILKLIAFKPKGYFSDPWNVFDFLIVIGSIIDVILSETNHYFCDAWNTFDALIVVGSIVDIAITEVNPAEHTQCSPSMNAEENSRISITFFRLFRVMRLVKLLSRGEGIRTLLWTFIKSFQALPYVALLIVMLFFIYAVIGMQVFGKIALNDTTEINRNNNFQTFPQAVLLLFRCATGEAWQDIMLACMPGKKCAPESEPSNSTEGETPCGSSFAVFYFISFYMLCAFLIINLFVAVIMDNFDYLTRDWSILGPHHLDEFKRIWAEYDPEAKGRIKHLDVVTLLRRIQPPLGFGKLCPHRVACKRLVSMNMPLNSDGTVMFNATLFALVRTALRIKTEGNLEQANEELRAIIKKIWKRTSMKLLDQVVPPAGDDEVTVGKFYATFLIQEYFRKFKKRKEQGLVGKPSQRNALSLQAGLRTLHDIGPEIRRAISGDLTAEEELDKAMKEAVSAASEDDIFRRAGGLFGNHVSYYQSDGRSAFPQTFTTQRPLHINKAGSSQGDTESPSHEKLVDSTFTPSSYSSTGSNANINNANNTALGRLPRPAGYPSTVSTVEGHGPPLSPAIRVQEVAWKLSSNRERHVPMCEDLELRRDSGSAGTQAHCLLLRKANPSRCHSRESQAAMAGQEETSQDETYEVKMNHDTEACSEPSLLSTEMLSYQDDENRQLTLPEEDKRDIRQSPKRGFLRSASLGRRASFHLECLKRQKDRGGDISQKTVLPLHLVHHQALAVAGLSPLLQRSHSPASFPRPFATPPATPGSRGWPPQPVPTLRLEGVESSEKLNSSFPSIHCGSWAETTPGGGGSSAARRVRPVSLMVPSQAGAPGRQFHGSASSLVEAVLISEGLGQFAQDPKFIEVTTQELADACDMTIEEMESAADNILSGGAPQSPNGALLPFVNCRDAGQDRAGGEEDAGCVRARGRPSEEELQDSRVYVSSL
SLC7A5: Large neutral amino acids transporter small subunit 1 (SLC7A5, Homo sapiens, UniProt Q01650)
NNMT: Nicotinamide N-methyltransferase (NNMT, Homo sapiens, UniProt P40261)
Sequence of UniProt P40261 (whole entry, looked up): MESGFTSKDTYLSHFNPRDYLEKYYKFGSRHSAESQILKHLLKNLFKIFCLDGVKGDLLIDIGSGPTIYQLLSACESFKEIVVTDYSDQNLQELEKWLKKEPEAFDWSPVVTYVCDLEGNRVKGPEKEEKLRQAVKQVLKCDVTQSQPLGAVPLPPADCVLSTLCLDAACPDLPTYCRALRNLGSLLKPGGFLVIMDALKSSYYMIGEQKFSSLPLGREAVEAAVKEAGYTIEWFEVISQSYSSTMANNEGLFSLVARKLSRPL
Gria1: Glutamate receptor 1 (Gria1, Rattus norvegicus, UniProt P19490)
Sequence of UniProt P19490 (whole entry, looked up): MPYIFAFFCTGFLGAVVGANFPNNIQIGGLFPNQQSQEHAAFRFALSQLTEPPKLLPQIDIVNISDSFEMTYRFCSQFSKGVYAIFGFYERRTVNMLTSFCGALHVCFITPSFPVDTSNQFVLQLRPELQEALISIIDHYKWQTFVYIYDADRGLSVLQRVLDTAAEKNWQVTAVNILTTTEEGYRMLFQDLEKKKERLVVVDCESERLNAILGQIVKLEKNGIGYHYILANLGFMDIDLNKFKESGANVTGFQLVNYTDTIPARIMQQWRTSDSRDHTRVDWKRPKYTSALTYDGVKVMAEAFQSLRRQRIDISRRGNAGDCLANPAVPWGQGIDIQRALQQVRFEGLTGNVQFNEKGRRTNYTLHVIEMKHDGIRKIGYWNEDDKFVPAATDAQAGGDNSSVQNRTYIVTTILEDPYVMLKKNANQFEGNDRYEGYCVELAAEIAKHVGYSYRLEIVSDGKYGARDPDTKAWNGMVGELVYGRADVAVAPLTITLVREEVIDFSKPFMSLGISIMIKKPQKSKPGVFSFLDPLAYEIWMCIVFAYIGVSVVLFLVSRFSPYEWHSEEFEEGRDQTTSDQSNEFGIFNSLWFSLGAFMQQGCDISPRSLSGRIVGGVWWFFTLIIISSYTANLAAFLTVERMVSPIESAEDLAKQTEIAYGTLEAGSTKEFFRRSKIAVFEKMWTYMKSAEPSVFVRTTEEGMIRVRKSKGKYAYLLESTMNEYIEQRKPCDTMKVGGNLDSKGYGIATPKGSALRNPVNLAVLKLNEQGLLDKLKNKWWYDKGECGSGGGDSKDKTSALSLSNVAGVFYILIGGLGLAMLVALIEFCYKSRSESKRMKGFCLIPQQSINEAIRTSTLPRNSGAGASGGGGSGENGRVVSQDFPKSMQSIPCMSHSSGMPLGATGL
DNA dC->dU-editing enzyme APOBEC-3B C-terminal domain: DNA dC->dU-editing enzyme APOBEC-3B, C-terminal domain (Homo sapiens, UniProt Q9UH17)
PIK3CD: Phosphatidylinositol 4,5-bisphosphate 3-kinase catalytic subunit delta isoform (PIK3CD, Homo sapiens, UniProt O00329)
NTSR1: Neurotensin receptor type 1 (NTSR1, Homo sapiens, UniProt P30989)
Sequence of UniProt P30989 (whole entry, looked up): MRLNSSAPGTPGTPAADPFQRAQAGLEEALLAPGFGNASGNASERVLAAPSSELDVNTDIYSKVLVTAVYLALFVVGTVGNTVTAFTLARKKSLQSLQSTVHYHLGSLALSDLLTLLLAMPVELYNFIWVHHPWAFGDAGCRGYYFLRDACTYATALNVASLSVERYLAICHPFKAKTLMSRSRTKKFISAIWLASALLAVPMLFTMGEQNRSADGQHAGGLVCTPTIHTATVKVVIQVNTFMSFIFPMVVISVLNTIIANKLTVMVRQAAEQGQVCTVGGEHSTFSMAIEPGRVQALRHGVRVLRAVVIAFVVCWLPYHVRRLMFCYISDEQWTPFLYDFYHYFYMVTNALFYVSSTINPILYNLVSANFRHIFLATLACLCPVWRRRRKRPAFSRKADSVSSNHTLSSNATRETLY

`O=C(CSc1nnc(-c2ccco2)c(-c2ccco2)n1)c1cccs1` has an IC50 of 85.4 µM (Uncharacterized protein; enzyme activity, inhibitor, coupled colorimetric; added: E. coli pyrophosphatase coupling).
With `O=C(O)c1ccc(Nc2c(-c3ccccc3)nc3ccc(CON=CC(=CNc4ccc(Cl)cn4)c4nc5ccccc5o4)cn23)cc1` the inhibition was 57.6% (TDP1; enzyme activity, inhibitor; 100 µM, unpurified compound).
The IC50 of `Clc1cccc(CNc2nc(NC3CCCCC3)c3ccccc3n2)c1` is reported as 21 µM (ADRB2; β-arrestin recruitment, antagonist).
The IC50 of `Clc1ccc(C2=Nn3c(nnc3C3CCCCC3)SC2)cc1` is reported as greater than 100 µM (ppa; enzyme activity, inhibitor).
The IC50 of `CNCc1ccc2c(c1)N(C(=O)OCCC(F)(F)F)[C@H](CNC(=N)N)[C@H]2NC(=O)C(=O)Nc1ccc(Cl)c(F)c1` is reported as 0.58 µM (env (Human immunodeficiency virus 1, UniProt O40222); HIV-1 infection; Cf2Th-CD4/CCR5 cells; 48 h).
The IC50 of `COC(=O)C1=C(C)NC(C)=C(C(=O)OC)C1c1ccc(F)c(C(F)(F)F)c1` is reported as 3.11 µM (CACNA1C; ion current, inhibitor, patch clamp; pH 7.4).
`N[C@@H](Cc1c[nH]c2ccc(OCc3cccc(-c4ccsc4)c3)cc12)C(=O)O` gave an IC50 of 18.9 µM (SLC7A5; transporter uptake, inhibitor, radiometric).
With `Nc1ccc2c(NC3CCCCC3)nc(Nc3ccc(F)c(F)c3)nc2c1` the IC50 was 4.4 µM (ADRB2; β-arrestin recruitment, antagonist).
`O=C(CSc1nnc(-c2ccco2)c(-c2ccco2)n1)c1ccc(Cl)s1` gave an IC50 of greater than 30 µM (ppa; inhibitor, counter-screen, coupling enzyme alone).
For `CCc1cc(NC)ncc1C(N)=O`, the IC50 was 0.794 µM (NNMT; enzyme activity, inhibitor).
`Fc1ccc(Nc2nc(NC3CCCCC3)c3cc(C(F)(F)F)ccc3n2)cc1F` has an IC50 of 0.2 µM (Beta-2 adrenergic receptor (ADRB2, Homo sapiens, UniProt P07550, N148A); β-arrestin2 recruitment, antagonist, BRET; HEK293; mutant N148A, added: isoprenaline 1 µM).
With `COc1ccnc(C)c1C` the IC50 was 7.94 µM (NNMT; enzyme activity, inhibitor).
`CC[C@H](C)[C@H](NC(=O)[C@H](CCCCN)NC(=O)[C@H](CCCCN)NC(=O)[C@H](CC(=O)O)NC(=O)[C@@H](N)CCC(=O)O)C(=O)N[C@H](C(=O)N[C@H](C(=O)N[C@@H](CCSC)C(=O)N1CCC[C@H]1C(=O)N[C@@H](CS)C(=O)N[C@@H](CCCCN)C(=O)N[C@@H](CS)C(=O)N[C@@H](C)C(=O)N1CCC[C@H]1C(=O)N[C@@H](CO)C(=O)N[C@@H](CCCNC(=N)N)C(=O)O)[C@@H](C)CC)C(C)C` gave an IC50 of 32.8 µM (MAD2L2 (Homo sapiens, UniProt Q9UI95, R124A); REV7 complex disruption, inhibitor, fluorescence polarization; added: FAM-RBM1 peptide).
With `O=C(O)Cc1cc2c(cc1C(=O)c1cccc(Br)c1)OCO2` the IC50 was 4.57 µM (Gria1; glutamate-evoked current, inhibitor, whole-cell patch clamp; HEK293T, homomeric receptor).
For `Cc1cccc2c1NC(=O)C2(O)CC(=O)c1ccc2c(c1)OCO2` (stereo not shown), the IC50 was greater than 100 µM (ppa; enzyme activity, inhibitor).
`Cc1cc2c(cc1N)n(C)c(=O)n2C` gave an IC50 of 5.82 µM (Bromodomain-containing protein 1, bromodomain (BRD1, Homo sapiens, UniProt O95696); acetylated histone H4 peptide binding, inhibitor, HTRF).
The IC50 of `NC(=O)c1ccc2nc(CN3CCCC3c3ccco3)cc(O)c2c1` (stereo not shown) is reported as 458 ± 18 µM (DNA dC->dU-editing enzyme APOBEC-3B C-terminal domain; deaminase activity, inhibitor, UDG-coupled deamination).
The IC50 of `Cc1nc(N(C)c2ccc3c(c2)/C(=C/c2cn(C)c4ccccc24)C(=O)N3C)c2ccccc2n1` is reported as 0.227 µM (PIK3CD; enzyme activity, inhibitor, ADP detection).
For `COc1ccc2c(c1OC)C(=O)N(c1cccc(NC(C)=O)c1)C2`, the IC50 was greater than 100 µM (Uncharacterized protein; inhibitor, coupled colorimetric; Trypanosoma brucei).
`CCN(CC)CC(=O)Nc1cccc(-n2cc(-c3ccc4ccc(-c5cn(-c6cccc(NC(=O)CN(CC)CC)c6)nn5)cc4c3)nn2)c1` gave an IC50 of greater than 10 µM (Proto-oncogene tyrosine-protein kinase Src (SRC, Homo sapiens, UniProt P12931); enzyme activity, inhibitor).
`O=C(Nc1ccc2[nH]ncc2c1)c1c[nH]cc1-c1ccccc1` has an IC50 of 30.7 µM (CACNA1C; calcium influx, inhibitor, Fluo-4 fluorescence; HEK293 expressing Cav1.2; 30 min, pH 7.2).
`CNc1cc(C)c(C(N)=O)cn1` has an IC50 of 0.251 µM (NNMT; enzyme activity, inhibitor).
With `CC(=O)C1=C(C)Nc2ccccc2S1` the IC50 was 59 µM (Uncharacterized protein; enzyme activity, inhibitor, coupled colorimetric; added: E. coli pyrophosphatase coupling).
The IC50 of `O=C1CC(c2ccccc2)N1C(=O)Oc1ccccc1` (stereo not shown) is reported as 5.4 µM (Rhomboid protease GlpG (glpG, Escherichia coli, UniProt P09391); substrate cleavage, inhibitor; NR698).
With `Oc1ccc(C#Cc2c(O)ccc3c2C(c2ccc(O)cc2)(c2ccc(O)cc2)c2cc(O)ccc2-3)cc1` the IC50 was 0.203 µM (3',5'-cyclic-AMP phosphodiesterase 4D (PDE4D, Homo sapiens, UniProt Q08499); enzyme activity, inhibitor).
With `O=C(Cc1ccc(OCc2ccccc2)cc1)NC1(C(=O)O)CCN(C(=O)c2ccc(-c3cccc(Cl)c3)cc2)CC1` the IC50 was greater than 10 µM (G-protein coupled receptor 55 (GPR55, Homo sapiens, UniProt Q9Y2T6); antagonist, GloSensor cAMP).
`CCCN(C)c1ccc2nc(C3CC3)nc(N3CCC(c4ccccc4OC)CC3)c2c1` gave an IC50 of 0.554 µM (NTSR1; G protein activation, antagonist).
`Fc1ccc(Nc2nc(NC3CCCCC3)c3cc(Cl)ccc3n2)cc1F` gave an IC50 of greater than 50 µM (ADRB2; cAMP production, antagonist, GloSensor; added: isoproterenol 1 µM).
`O=C(CCNC(=O)CNC(=O)CC(c1ccccc1)(c1ccccc1)c1ccccc1)NC[C@@H]1CCCN(Cc2ccc(F)cc2)C1` gave an IC50 of 13.1 µM (Muscarinic acetylcholine receptor M5 (CHRM5, Homo sapiens, UniProt P08912); ligand displacement, radioligand; cell membranes).
Under IC50, `COP(=O)(O)OCCCCCCNC(=O)c1cc2ccccc2oc1=O` is recorded as “no binding” (Retinal rod rhodopsin-sensitive cGMP 3',5'-cyclic phosphodiesterase subunit delta (PDE6D, Homo sapiens, UniProt O43924)).
For `O=C1/C(=N\c2cccc(Cl)c2)c2ccccc2N1Cc1ccccc1`, the IC50 was 0.0736 µM (PIK3CD; enzyme activity, inhibitor, ADP detection).
`COc1ccccc1C1CCN(c2nc(C3(F)CCCC3)nc3ccc(N(C)CCO)cc23)CC1` gave an IC50 of 5.68 µM (NTSR1; G protein activation, antagonist, BRET).
For `Cc1c(C=NOCc2ccc(-c3nc4cc(-c5ccccc5)ccn4c3Nc3ccc(C(=O)O)cc3)cc2)c2ccccn2c1CCC#N` (mixture of isomers), the inhibition was 69.4% (TDP1; enzyme activity, inhibitor; 100 µM, unpurified compound).
The IC50 of `COc1ccc(OC)c(C2=Nn3c(nnc3C3CCCCC3)SC2)c1` is reported as greater than 30 µM (ppa; inhibitor, counter-screen, coupling enzyme alone).
`CCC1(O)CCCN(C(=O)c2ccc(-c3ccccc3C(F)(F)F)cc2)C1` (stereo not shown) gave an IC50 of 383 ± 17 µM (DNA dC->dU-editing enzyme APOBEC-3B C-terminal domain; deaminase activity, inhibitor, UDG-coupled deamination).
For `Cc1nn(-c2cccc(N)c2)c(=O)c2cnc(Nc3ccc(N4CCNCC4)cc3)nc12`, the IC50 was greater than 10 µM (Tyrosine-protein kinase JAK1 (JAK1, Homo sapiens, UniProt P23458); enzyme activity, inhibitor).
The IC50 of `N[C@@H](Cc1c[nH]c2ccc(OCc3ccccc3)cc12)C(=O)O` is reported as 18.8 µM (SLC7A5; transporter uptake, inhibitor, radiometric).
With `CN(C)c1nc(NCc2ccccc2F)c(/N=N/c2ccc(Cl)cc2)c(N(C)C)n1` the IC50 was 0.15 µM (Chitinase (OfChi-h, Ostrinia furnacalis, UniProt Q4AE59); enzyme activity, inhibitor, fluorescence).
`COC(=O)Cc1cc2c(cc1C(=O)c1cccc(I)c1)OCO2` has an IC50 of 5.89 µM (Gria1; glutamate-evoked current, inhibitor, whole-cell patch clamp; HEK293T, homomeric receptor).
`C[N+]1(Cc2ccc3ccccc3c2)CCN(CCCN2c3ccccc3Sc3ccc(Cl)cc32)CC1` gave an IC50 of 50.2 µM (Uncharacterized protein; enzyme activity, inhibitor, coupled colorimetric; added: E. coli pyrophosphatase coupling).
